Measurements gathered from unrelated publications.
Lines come from different studies, so protocols differ. Several values in a cell are separate wells, animals, samples, runs or records. ± marks the error that the study gave.
rep main protease: Replicase polyprotein 1ab, main protease (rep, Severe acute respiratory syndrome coronavirus 2, UniProt P0DTD1)
Spike glycoprotein: Spike glycoprotein (Severe acute respiratory syndrome coronavirus 2, UniProt P0DTC2)
UniProt Q7BQ98, sequence (whole entry, looked up): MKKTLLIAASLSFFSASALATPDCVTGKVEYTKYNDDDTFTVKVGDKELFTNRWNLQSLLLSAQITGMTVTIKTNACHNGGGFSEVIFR
UniProt P78348, sequence (whole entry, looked up): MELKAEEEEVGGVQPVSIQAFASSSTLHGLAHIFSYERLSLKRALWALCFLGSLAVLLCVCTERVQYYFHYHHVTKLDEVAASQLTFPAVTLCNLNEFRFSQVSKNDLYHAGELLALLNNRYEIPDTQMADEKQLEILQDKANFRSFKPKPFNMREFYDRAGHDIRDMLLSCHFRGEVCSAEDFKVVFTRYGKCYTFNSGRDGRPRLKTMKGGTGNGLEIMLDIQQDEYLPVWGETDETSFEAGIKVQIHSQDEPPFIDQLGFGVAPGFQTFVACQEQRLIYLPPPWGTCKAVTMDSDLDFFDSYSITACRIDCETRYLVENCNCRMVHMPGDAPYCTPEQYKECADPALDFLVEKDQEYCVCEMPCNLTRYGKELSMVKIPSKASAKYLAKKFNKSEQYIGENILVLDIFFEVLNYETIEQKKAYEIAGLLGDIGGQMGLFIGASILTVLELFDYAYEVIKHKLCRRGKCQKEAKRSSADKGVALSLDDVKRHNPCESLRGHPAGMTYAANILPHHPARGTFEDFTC

SMILES	tested on	assay	system	setting	scale	endpoint	result
[N-]=[N+]=N[C@@H]1O[C@H](CO)[C@H](O[C@H]2O[C@H](CO)[C@H](O)[C@H](O)[C@H]2O)[C@H](O)[C@H]1O	Shiga toxin subunit B (stxB, Shigella dysenteriae, UniProt Q7BQ98)		Escherichia coli			Hill slope	-1.48
CC(C)C[C@H](NC(=O)[C@H](CC(C)C)NC(=O)[C@H](CCCCN)NC(=O)[C@H](CCCCN)NC(=O)[C@H](CCCCN)NC(=O)[C@H](CC(C)C)NC(=O)[C@H](CC(C)C)NC(=O)[C@H](CC(C)C)NC(=O)CNC(=O)[C@H](CC(C)C)NC(=O)[C@H](CCCCN)NC(=O)[C@H](CCCCN)NC(=O)[C@@H](N)CC(C)C)C(=O)O	HEK-293T	cell death		24 h, 10% cell death		lowest cytotoxic concentration	256 µg/mL
O=C(NC[C@H](NC(=O)c1cncc2sccc12)c1ccc2ccccc2c1)c1cocn1	rep main protease	enzyme activity		5 µM, mean of runs		inhibition	19.2%
C[C@H]1CC[C@]2(NC1)O[C@H]1C[C@H]3[C@@H]4CC[C@H]5C[C@@H](O[C@@H]6O[C@H](CO)[C@H](O[C@@H]7O[C@H](CO)[C@@H](O)[C@H](O[C@@H]8OC[C@@H](O)[C@H](O)[C@H]8O)[C@H]7O[C@@H]7O[C@H](CO)[C@@H](O)[C@H](O)[C@H]7O)[C@H](O)[C@H]6O)CC[C@]5(C)[C@H]4CC[C@]3(C)[C@H]1[C@@H]2C	rep main protease	reporter gene (Gaussia luciferase), inhibitor		20 µM		inhibition	-7%
CO[C@H]1/C=C/O[C@@]2(C)Oc3c(C)c(O)c4c(O)c(c(/C=N/N5CCN(C)CC5)c(O)c4c3C2=O)NC(=O)/C(C)=C\C=C\[C@H](C)[C@H](O)[C@@H](C)[C@@H](O)[C@@H](C)[C@H](OC(C)=O)[C@@H]1C	Spike glycoprotein	binding, BLI				koff	0.411 s⁻¹
O=C1NCc2ccc(C(=O)N3CCC[C@@H]([C@H]4CCN(C(=O)c5cn[nH]c(=O)c5)C4)C3)cc2N1	rep main protease	enzyme activity, inhibitor		5 µM, run 2		inhibition	14.9%
O=C(/C=C/c1ccc(O)c2oc(-c3ccc(O)c(O)c3)cc12)O[C@H](Cc1ccc(O)c(O)c1)C(=O)O	Spike glycoprotein	binding, biolayer interferometry				kon	626 M⁻¹ s⁻¹
CC[C@H](C)[C@H](NC(=O)[C@H](CC(C)C)NC(=O)[C@H](Cc1c[nH]c2ccccc12)NC(=O)[C@H](CCC(N)=O)NC(=O)[C@@H](NC(=O)[C@H](Cc1ccccc1)NC(=O)[C@H](C)NC(=O)[C@H](CCCCNC(=O)COCCOCCNC(=O)COCCOCCNC(=O)CC[C@H](NC(=O)CCCCCCCCCCCCCCCCCCC(=O)O)C(=O)O)NC(=O)[C@H](CCC(N)=O)NC(=O)[C@H](C)NC(=O)[C@@H](NC(=O)[C@H](CCCCN)NC(=O)[C@H](CC(=O)O)NC(=O)[C@H](CC(C)C)NC(=O)C(C)(C)NC(=O)[C@@H](NC(=O)[C@H](CO)NC(=O)[C@H](Cc1ccc(O)cc1)NC(=O)[C@H](CC(=O)O)NC(=O)[C@H](CO)NC(=O)[C@@H](NC(=O)[C@H](Cc1ccccc1)NC(=O)[C@@H](NC(=O)CNC(=O)[C@H](CCC(=O)O)NC(=O)C(C)(C)NC(=O)[C@@H](N)Cc1ccc(O)cc1)[C@@H](C)O)[C@@H](C)O)[C@@H](C)CC)[C@@H](C)CC)C(C)C)C(=O)N[C@@H](C)C(=O)NCC(=O)NCC(=O)N1CCC[C@H]1C(=O)N[C@@H](CO)C(=O)N[C@@H](CO)C(=O)NCC(=O)N[C@@H](C)C(=O)N1CCC[C@H]1C(=O)N1CCC[C@H]1C(=O)N1CCC[C@H]1C(=O)N[C@@H](CO)C(N)=O		refers to: treatment-emergent application site reaction	healthy subjects	1.5 mg, multiple ascending dose		subjects with adverse event	0%
Nc1ccc(C(=O)N2CC3(CCC3)C[C@H]2CNC(=O)c2cncc3ccccc23)cc1O	rep main protease	enzyme activity, inhibitor		5 µM, mean of runs		inhibition	28.1%
Nc1ncnc2c([C@@H]3N[C@H](CO)[C@@H](O)[C@H]3O)c[nH]c12	Middle East respiratory syndrome-related coronavirus	viral replication	Vero C1008, Jordan N3	6.3 µM		inhibition	5.7%
CC1(C)Cc2ccc(C(=O)N3CCCC[C@H](C4CN(C(=O)c5cncc(O)c5)C4)C3)cc2O1	rep main protease	enzyme activity, inhibitor		5 µM, mean of runs		inhibition	11.5%
C=C(CC[C@@H](C(=O)O)[C@H]1[C@H](O)C[C@@]2(C)C3=CC[C@H]4C(C)(C)C(=O)CC[C@]4(C)C3=CC[C@]12C)C(C)C	rep main protease	reporter gene (Gaussia luciferase), inhibitor		20 µM		inhibition	1.45%
CC[C@H](C)[C@H](NC(=O)[C@@H]1CCCN1C(=O)[C@H](C)NC(=O)[C@@H]1CSSC[C@@H]2NC(=O)[C@H](CC(=O)O)NC(=O)[C@H](CCCNC(=N)N)NC(=O)[C@H](CCC(=O)O)NC(=O)[C@H](CCCNC(=N)N)NC(=O)CNC(=O)[C@H](CC(=O)O)NC(=O)[C@@H]3CSSC[C@H](NC(=O)[C@H](CCC(=O)O)NC(=O)[C@H](CC(C)C)NC(=O)CNC(=O)[C@H](C)NC(=O)[C@H](CSSC[C@H](NC(=O)[C@H](Cc4ccccc4)NC(=O)[C@@H](N)CO)C(=O)N[C@@H](CC(C)C)C(=O)N[C@@H](C(C)C)C(=O)N[C@@H](CCCCN)C(=O)N[C@@H](Cc4c[nH]c5ccccc45)C(=O)N[C@@H](CCCCN)C(=O)N[C@@H](CCC(N)=O)C(=O)N3)NC2=O)C(=O)N[C@@H](Cc2c[nH]c3ccccc23)C(=O)N[C@@H](CCCCN)C(=O)N[C@@H](CCCNC(=N)N)C(=O)N[C@@H](CO)C(=O)NCC(=O)N[C@@H](CC(N)=O)C(=O)N[C@@H](CCCCN)C(=O)N[C@@H](CO)C(=O)N[C@@H](CO)C(=O)N[C@@H](C(C)C)C(=O)N1)C(=O)N[C@H](C(=O)O)[C@@H](C)O	Acid-sensing ion channel 1 (ASIC1, Homo sapiens, UniProt P78348)	ion current, outside-out patch clamp	HEK-293T	1 µM	baseline: same patch before toxin	deactivation slowing	9 ± 1.2 fold
Cl.N[C@@H](Cc1ccccc1)C(=O)N1C/C(=C/c2ccc(Cl)c(Cl)c2)C(=O)/C(=C\c2ccc(Cl)c(Cl)c2)C1	rep main protease	reporter gene (Gaussia luciferase), inhibitor		20 µM		inhibition	-5.63%
CCCN1CCN(CCCNC(=O)c2cc3c(Cl)nc4ccccc4c3s2)CC1	SARS-CoV-2	cytopathic effect	USA_WA1/2020			AC50	10 µM
CCc1c(C(=O)C(N)=O)c2c(OCC(=O)O)cccc2n1Cc1ccccc1	Daboia russelii venom phospholipase A2	enzyme activity, inhibitor	MP population	0.01 µM, together with: NOB substrate	baseline: venom alone	remaining activity	99.1% and 100% and 96.9%
O=C(/C=C/c1ccc(O)c(O)c1/C=C/c1ccc(O)c(O)c1)O[C@H](Cc1ccc(O)c(O)c1)C(=O)O	Spike glycoprotein	binding				koff	0.00879 s⁻¹
Cn1cnc(Cn2c(=O)[nH]/c(=N\c3cc4cn(C)nc4cc3Cl)n(Cc3cc(F)c(F)cc3F)c2=O)n1			human, moderate renal impairment	oral, 375 mg, hypertriglyceridaemia TEAE, Mild severity		patients with adverse event	0%
CN(C)c1ccc(-c2nc(-c3cccs3)c(-c3cccs3)[nH]2)cc1	SARS-CoV-2	cytopathic effect, cell-based CPE	USA_WA1/2020			AC50	14.1 µM
N[C@@H](CC(=O)N1CCc2c(nc(C(F)(F)F)nc2C(F)(F)F)C1)CN1CC(F)(F)CCC1=O	rep main protease	reporter gene (mKate2), inhibitor		20 µM		inhibition	-0.46%

For quick reference, copied from above:
SMILES	tested on	assay	system	setting	scale	endpoint	result
CC[C@H](C)[C@H](NC(=O)[C@H](CC(C)C)NC(=O)[C@H](Cc1c[nH]c2ccccc12)NC(=O)[C@H](CCC(N)=O)NC(=O)[C@@H](NC(=O)[C@H](Cc1ccccc1)NC(=O)[C@H](C)NC(=O)[C@H](CCCCNC(=O)COCCOCCNC(=O)COCCOCCNC(=O)CC[C@H](NC(=O)CCCCCCCCCCCCCCCCCCC(=O)O)C(=O)O)NC(=O)[C@H](CCC(N)=O)NC(=O)[C@H](C)NC(=O)[C@@H](NC(=O)[C@H](CCCCN)NC(=O)[C@H](CC(=O)O)NC(=O)[C@H](CC(C)C)NC(=O)C(C)(C)NC(=O)[C@@H](NC(=O)[C@H](CO)NC(=O)[C@H](Cc1ccc(O)cc1)NC(=O)[C@H](CC(=O)O)NC(=O)[C@H](CO)NC(=O)[C@@H](NC(=O)[C@H](Cc1ccccc1)NC(=O)[C@@H](NC(=O)CNC(=O)[C@H](CCC(=O)O)NC(=O)C(C)(C)NC(=O)[C@@H](N)Cc1ccc(O)cc1)[C@@H](C)O)[C@@H](C)O)[C@@H](C)CC)[C@@H](C)CC)C(C)C)C(=O)N[C@@H](C)C(=O)NCC(=O)NCC(=O)N1CCC[C@H]1C(=O)N[C@@H](CO)C(=O)N[C@@H](CO)C(=O)NCC(=O)N[C@@H](C)C(=O)N1CCC[C@H]1C(=O)N1CCC[C@H]1C(=O)N1CCC[C@H]1C(=O)N[C@@H](CO)C(N)=O		refers to: treatment-emergent application site reaction	healthy subjects	1.5 mg, multiple ascending dose		subjects with adverse event	0%
Nc1ccc(C(=O)N2CC3(CCC3)C[C@H]2CNC(=O)c2cncc3ccccc23)cc1O	rep main protease	enzyme activity, inhibitor		5 µM, mean of runs		inhibition	28.1%
